Published values collected from several papers.
A part holds a random share of what one study measured.

Sample 1
Target: Centromere-binding protein 1, full length, N-terminal tag (CBF1, Saccharomyces cerevisiae, UniProt P17106, residues 1-351)
Sequence of UniProt P17106 (whole entry, looked up): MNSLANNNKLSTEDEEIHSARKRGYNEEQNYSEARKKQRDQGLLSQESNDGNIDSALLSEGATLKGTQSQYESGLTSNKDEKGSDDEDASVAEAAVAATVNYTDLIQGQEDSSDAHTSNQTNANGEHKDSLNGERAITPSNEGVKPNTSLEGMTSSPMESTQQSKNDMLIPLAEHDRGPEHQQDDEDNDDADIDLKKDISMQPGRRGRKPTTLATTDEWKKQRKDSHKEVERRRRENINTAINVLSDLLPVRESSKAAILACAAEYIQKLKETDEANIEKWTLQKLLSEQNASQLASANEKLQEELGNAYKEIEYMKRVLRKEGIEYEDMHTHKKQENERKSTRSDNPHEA
Technique: protein-binding microarray
Form: double-stranded DNA, one strand shown
Medium: in vitro
Concentration: 0.8 µM
Setting: whole 60-bp probe, no competitor
Direction: higher = stronger binding
All sequences stand within: … GTCTTGATTCGCTTGACGCTGCTG
Strand | fluorescence intensity [a.u.]
GAACATGAGAACCCATGTGAGTCTAAAGCTGTGTAG | 617
GAAGCTTGCGAGGGACACACGTGGTATGGTGGCTAG | 3220
GAAAGGAAAACTCATGTGAGTGTGACGTTACCGTAG | 596
CCTAACTACTATATGGACATGATATAGCTTCGTACA | 539
TGTACGAAGCTATATCACCTCTTTATAGTAGTTAGG | 522
CTAAGCAGATTTGATTAGGTGATGAGACAAATATTC | 524
GAATTAAACTAGAGTGATGTTACTCGACTTCCTTAG | 479
GAACTAAGGTTTGAAAACACCACGCAGCATTACTAG | 565
TGTACGAAGCTATAAAGCGTGTCTATAGTAGTTAGG | 540
CTACCAGTGAAATTTCACGTGATGTAATCTGATTTC | 7310
CCTAACTACTATACATCCGTGATATAGCTTCGTACA | 531
GAAATGGTATATTGGCACCTGAGCAAATCCAACTAG | 633
GAATCGGCACAGGCTCACCTGGGCCTACTAATTTAG | 478
CTATTTGCACCTATCCACGAGAGAAAGCAAGGATTC | 569
CTAGGCAAAATAATACACGTGCCCGTACGGCACTTC | 5420
CCTAACTACTATAATCACATGACATAGCTTCGTACA | 4620

Sample 2
Target: Histone acetyltransferase KAT6A, winged helix 1, GST fusion (KAT6A, Homo sapiens, UniProt Q92794, residues 1-85)
Technique: protein binding microarray
Form: double-stranded DNA, one strand shown
Medium: in vitro
Concentration: not given
Setting: 8-mer, flanks averaged, mean of 2 arrays, mostly near background
Reference: not given
Direction: higher = stronger binding
Residues (chain): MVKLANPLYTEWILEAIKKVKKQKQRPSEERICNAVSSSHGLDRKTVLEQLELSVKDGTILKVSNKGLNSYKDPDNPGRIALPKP
Strand | E-score
AGTGGGGG | -0.183
ATTGGTAG | -0.146
CACCTGTC | -0.0807
CCGCAGGC | 0.225
CACCTGCG | 0.0951
ACCTTGGA | -0.214
AGTCCGTG | 0.153
TCATGGCA | -0.0621
ACTCACGC | 0.137
AACGCCTA | 0.0269
GGTTGAAA | -0.0935
AAGAGATA | -0.15
CTTTAAAA | -0.0688
TACGTGCA | -0.0653
CGCAATCC | 0.205
TCGGGTAA | 0.083

Sample 3
Target: Ras GTPase-activating protein-binding protein 1, full length (G3BP1, Homo sapiens, UniProt Q13283)
Sequence of UniProt Q13283 (whole entry, looked up): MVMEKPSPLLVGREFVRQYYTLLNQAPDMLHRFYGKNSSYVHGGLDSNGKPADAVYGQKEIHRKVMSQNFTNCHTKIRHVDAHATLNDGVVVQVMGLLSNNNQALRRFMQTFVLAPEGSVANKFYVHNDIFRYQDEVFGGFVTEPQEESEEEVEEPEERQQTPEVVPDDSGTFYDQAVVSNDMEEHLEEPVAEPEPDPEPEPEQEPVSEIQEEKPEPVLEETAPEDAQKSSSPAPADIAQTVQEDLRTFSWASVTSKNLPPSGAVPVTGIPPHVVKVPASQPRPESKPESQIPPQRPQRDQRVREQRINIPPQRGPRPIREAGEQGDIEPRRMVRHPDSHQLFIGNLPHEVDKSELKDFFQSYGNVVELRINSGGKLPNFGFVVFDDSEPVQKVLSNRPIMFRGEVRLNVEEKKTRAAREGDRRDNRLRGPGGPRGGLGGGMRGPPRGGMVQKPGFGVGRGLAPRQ
Technique: RNA Bind-n-Seq
Form: RNA
Medium: in vitro
Concentration: 200 nM
Setting: whole 134-nt RNA, ends assumed
With: 150 mM LiCl
Reference: input library
Direction: higher = stronger binding
Each molecule: 7-deaza-guanosine replaces G
All sequences stand within: GGGAGUUCUACAGUCCGACGAUC … UGGAAUUCUCGGGUGUCAAGG
Strand | log2 enrichment
UCCUGUGCUACACAUCGUAUGUACCGAAUCGGGGAAAGGGGAAAAAGGGGAAAAAGGGGAAAGUAUUAUGUUACGCCGUUCGGAUCUGCA | 0.313
CUCAAGUCCUGUGCUACACAUCGUAUGUACCGAAUCGGGGUGGGUGGGGUGGGGAAAGUAUUAUGUUACGCCGUUCGGAUCUGCACUUCC | -0.492
CCUCAAGUCCUGUGCUACACAUCGUAUGUACCGAAUCGGGCCGGCCGGGCCGGAAAGUAUUAUGUUACGCCGUUCGGAUCUGCACUUCCA | 0.996
UGGUGACCUACCUGGACGUCCGGAGCUGCCUUGGACACCUAGGCUACCUGGGCUACCCCACCCUCUGUGAGCAGGACCAGGCCCAUGCCA | -0.381
UAACUUUAGAGGAGGAUCUGAUGGAUAUGGCAGUGGACGUGGAUUUGGGGAUGGCUAUAAUGGGUAUGGAGGAGGACCUGGAGGUGGAAA | 0.151
CAAGUCCUGUGCUACACAUCGUAUGUACCGAAUCGGCCCGGGGCCCGGCCCGGGGAAAGUAUUAUGUUACGCCGUUCGGAUCUGCACUUC | -0.174
GCAGGAAGUAAAAAAAAAUGGAAAUGCUUCGGAUAGUGGCAGGGGUGGGGGUUGCUAAGGAAAGGGUGGGAUGGGAGUGGGUAAAGAGUU | -0.168
GCAGGAAGUAAAAACAAAUGGAAAUGCUUCGGAUAGUGGCAGGGGUGGGGGUUGCUAAGGAAGGGGUGGGAUGGGAGUGGGUAAAGAGUU | -0.435

Sample 4
Target: RING finger protein unkempt homolog, zinc fingers 1-6, GST-SBP tag (UNK, Homo sapiens, UniProt Q9C0B0, residues 30-357)
Sequence of UniProt Q9C0B0 (30-357, looked up): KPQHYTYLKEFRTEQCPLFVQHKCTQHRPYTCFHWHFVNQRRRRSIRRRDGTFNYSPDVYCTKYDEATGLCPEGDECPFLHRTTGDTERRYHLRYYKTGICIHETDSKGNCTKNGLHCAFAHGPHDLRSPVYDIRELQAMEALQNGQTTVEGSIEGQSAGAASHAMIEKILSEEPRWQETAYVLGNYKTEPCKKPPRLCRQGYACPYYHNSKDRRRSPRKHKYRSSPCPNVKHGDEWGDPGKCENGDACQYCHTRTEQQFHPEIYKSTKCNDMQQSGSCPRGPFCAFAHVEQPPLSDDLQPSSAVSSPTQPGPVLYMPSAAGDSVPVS
Technique: RNA Bind-n-Seq
Form: RNA
Medium: in vitro
Concentration: not given
Setting: RNA with constant flanks, human-mouse chimeric sites, ends assumed
Reference: input RNA pool
Direction: higher = stronger binding
All sequences stand within: GGGAGUUCUACAGUCCGACGAUC … CAACAGAGGAUUGAGCAUCA
Strand | bound/input enrichment
CAGCGCCGAGGCCGCGGUUUCCCCCUGGGCCUCCCCAGCCGCCGCCAUGGGCAUCAAGUUUUUAGAAGUUAUCAAACCAUUCUGUGCAGUUCUACCAGAAAUUCAGAAACCGGAAAGGAA | 0.852 ratio
AGAAUCUUGGGACUGUUUUGCUUGAUUGGUCAUUGAUAGCUUAACAAACAUGGAGAUAAGAUUAGAAAUCUUGACAUCAACAGGUAUUAAGCAGAAAAAACCAUGGCCACGUGUCUCCUG | 0.112 ratio
CUGUGACCACAAGAUCCUGAAGUUUGAGCAGCUGAAGUUGACUCCCUCCCCUUCCCUGAACCCCCCCCCACUGCCCCCCCAUCCCCCAGUGUCGGCUGAGAUGUUGCCUCUGCACGGUUC | 0.661 ratio
GUGUCCUGCUUUCAACUUAAAUCACUGAGGCAUCUCUACUGUUCUGUGAGCAUCAGGACUGUAGCGCUGUGUCACCACAGAUGAGAACAGAAGCAGCCUUUCUGUGGAGGGUGGGAAUGA | 0.182 ratio
UGUGAACUGUCUCUUGAUUGGGGUCUAAAACAUGAUUUUUCCUGGCACAUAUUCCAAAGCAAAGACUUUGUUGCCUGCUGCUUAUUGUCUAAUUUACAGGGAUAUUUAAUUUUGUCAGGU | 0.26 ratio
AUUGUUGAAGCGAAUCCACUUUUAGAAGCAUUUGGAAAUGCGAAGACUGUUCGCAACAAUAAUAGCAGUCGAUUUGGAAAAUUUGUAGAAAUUCAUUUUAAUGAAAAGAGUUCGGUUGUU | 0.677 ratio
UAAGUUAUUUUGUACAGCUUUGUAAAUUGUAUAGCUUUUUAUAUUGCCAUGUUUAUUUUGUUUGGGUGCUUUAUUAAAUUAAGUACAUAGCUAAGGUAAUGAACAUCUUUUUCAGUAAUU | 1.11 ratio
AUCAAAUACUUUGGGGACAUCAUUAGUGUGGGACAGAGAUUGUUGCAAGGAGCUCGGAUUUUAGGAAUUCCAGUUAUCAUAACGGAACAAUACCCCAAAGGACUUGGCAGCACCGUUCAA | 0.312 ratio

A few entries again (sample 1):
Strand | fluorescence intensity [a.u.]
CTACCAGTGAAATTTCACGTGATGTAATCTGATTTC | 7310
CCTAACTACTATACATCCGTGATATAGCTTCGTACA | 531
GAAATGGTATATTGGCACCTGAGCAAATCCAACTAG | 633
GAATCGGCACAGGCTCACCTGGGCCTACTAATTTAG | 478
CTATTTGCACCTATCCACGAGAGAAAGCAAGGATTC | 569
CTAGGCAAAATAATACACGTGCCCGTACGGCACTTC | 5420
CCTAACTACTATAATCACATGACATAGCTTCGTACA | 4620
